# Experimental data from different studies.
# Parts stem from different laboratories: compare values within a part only.

# Study 1 — technique: RNA Bind-n-Seq; molecule type: RNA; sample: in vitro; concentration: 20 nM; setting: 6-mer, flanks averaged, single round; together with: 150 mM LiCl; reference: input library; direction: higher = stronger binding
# Target: TAR DNA-binding protein 43, full length, His tag (TARDBP, Homo sapiens, UniProt Q13148, residues 1-414)
Strand,6-mer enrichment (R)
AUGGUG,1.34
UCUAGU,0.913
UGUGCA,1.21
GUUCUC,0.892
UCCCCA,1.14
CUACUU,0.91
UACGAC,0.809
CGAUAA,0.821
CUGGUG,1.12
GGAUAU,0.95
AUGCUG,0.988
GAUGCA,0.929
UGUGAC,1.06
GAAAUG,1
AUGCCC,1.03

# Study 2 — technique: protein binding microarray; molecule type: double-stranded DNA, one strand shown; sample: in vitro; concentration: not given; reference: not given; direction: higher = stronger binding
# Target: Histone acetyltransferase KAT6A, winged helix 2, GST fusion (KAT6A, Homo sapiens, UniProt Q92794, residues 85-181)
# Setting: 8-mer, flanks averaged, mean of 2 arrays, mostly near background
# Residues (chain): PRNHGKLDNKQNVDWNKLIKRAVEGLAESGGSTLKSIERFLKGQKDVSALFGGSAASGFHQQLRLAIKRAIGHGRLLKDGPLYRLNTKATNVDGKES
Strand,E-score
TGACCAAA,0.0176
CTTTATCA,0.221
GACCCCAC,0.0982
GTTCAATA,-0.0705
CACCCCAC,0.0166
CAATGATG,-0.0779
CCAGTATC,-0.188
AGCAGAGG,0.0809
CTGGGCAA,0.183
CTCGAAAC,0.14
ACCACGGC,-0.0248
CGGGATAC,0.0189
CCCAGAAG,0.0348
ATACAATC,-0.0179
CTTCCATC,-0.0387
ACAGCACT,0.0686

# Study 3 — technique: RNA Bind-n-Seq; molecule type: RNA; sample: in vitro; concentration: 365 nM; reference: no-protein control; direction: higher = stronger binding
# Target: RNA binding protein fox-1 homolog 2, RRM domain, GST-SBP tag (RBFOX2, Homo sapiens, UniProt O43251-10, residues 100-194)
# Setting: natural RNA segment, single round, ends assumed
# Shared flanks, not repeated: GGGAGUUCUACAGUCCGACGAUC … UGGAAUUCUCGGGUGCCAA
# Construct (chain): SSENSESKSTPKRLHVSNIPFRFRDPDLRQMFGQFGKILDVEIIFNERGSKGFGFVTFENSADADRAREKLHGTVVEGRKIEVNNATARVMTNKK
Strand,RBNS enrichment (R)
GGGCUGGCUGCAGACAGGGUGGCUGAGGGGAGGGGCAAUCGAGUCCCGAGUCCUUGGCUUAGCAUGGCCUCCUUUUCUAGAACUGCACAGAGGGGAGGAGAGAGUAGCCG,2.21
UUCUCCACCAUUUUCGUACGUCUCCUGUCCUGGUUUUUUCUUCUGCACUCUUGGAGAGAUUUAGAUGUUGGUCUCCUGGUUUGUGUUUCUCCGAGACAAUGCUCUUUUUU,2.54
AAGCCUGAGAAGUCACUUUGGAACUAAAUUGCCUCCAUUUUAUUUUGUACGAGUAAGGGUUUGAUCUACAAAAGAGCUCACAUGGACGCACUGAGAACGCCUGCCAGCUU,1.16
GGGGGGUUCAAAUGCCAGUGUUGGGCUAGGCCUGGCUAGUAGAAUAGGGUUUAGAUUAUUUGACAGAAGUGCCUCUUAUGCAGACUGCUUCCCUUUGGGUAGCUGUGAUC,0.894
CCGUAUAGAUUCAUCGUGUAGUUCUUCCCAAUAACAAUUACCCAUAUCAUUGAUGUAAAACCCUUGGACUUAGGGGGCAUGAGGAUUUAAUAUGCCUGCGGGGUAACGAU,5.82
AGGCUUCAGAGGUACCUGGCACCUUACUCAAGCAAAAACAAAAAACAGCUUUACUUCAAAAGCAUGUGCCUCUGGUAAAUUAUCCAUCACUUUUGUUUUAAAGUGGUCCC,0.444
UGAGAAUGGAGAGCCCGAGAAGUGAAUCUUCCUUGUCCUGUAUAAUAAAUUAUUAAGUUGUGUUGGUCCGGGCUUCGAAUGGCCUCUUUUUCCUAGUGUAAUUCUGUGUG,0.641
AUUACUUGGUACAAUAAUUAUUGUAAUUAAGAGAUGUAGCCUUUAUUAAAAUUUUAUAUUUUUCAAACACUGGCCUCGUCUUUGAAUCCCCAGGGUGGGAACAGGGCCGA,0.38
UUAAUUUCUUUAGGACAGUUGUAAAGGUCUCUCUCCUGAGGACAAUGACUUGGAAGAACUGGGGCACAGCCAGUCCCAGACACUGGUGGAGGCUGCAGUGACUUUUUUUG,0.285
CUUCUGUUCCAGGUGCUGUUCGAGCUGUUAGAACCCUUAGGCUUGACAGCUUUGUGAGUUAUUAUUGAAAAAUGAGGAUUCCAAGAGUCAGAGGAGUUUGAUAAUGUGCA,19.8
AAGGAGGACCAGUCUGAAGAUAAGAAAAGACCCAGCCUGCCUUCCAGCCCGUCUCCUGGCCUCCCAAAGGCUUCUGCCACCUCAGCCACUCUGGAGCUGGAUAGACUGAU,0.288
AAUGUUUGAUGCCUCUCUUCUGCAAAGCGUAUCAUCUCAUUGACUGUGAAUCUGUAUAUUAUUCUGAUGGAUACAGAUAAUGAUCUUUUCUCUUGUGAGGUAUCUUCAUU,0.38

# Study 4 — technique: RNA Bind-n-Seq; molecule type: RNA; sample: in vitro; concentration: not given; reference: input RNA pool; direction: higher = stronger binding
# Target: RING finger protein unkempt homolog, zinc fingers 1-6, GST-SBP tag (UNK, Homo sapiens, UniProt Q9C0B0, residues 30-357)
# Setting: RNA with constant flanks, human and mouse sites, ends assumed
# Shared flanks, not repeated: GGGAGUUCUACAGUCCGACGAUC … CAACAGAGGAUUGAGCAUCA
# Residues (chain): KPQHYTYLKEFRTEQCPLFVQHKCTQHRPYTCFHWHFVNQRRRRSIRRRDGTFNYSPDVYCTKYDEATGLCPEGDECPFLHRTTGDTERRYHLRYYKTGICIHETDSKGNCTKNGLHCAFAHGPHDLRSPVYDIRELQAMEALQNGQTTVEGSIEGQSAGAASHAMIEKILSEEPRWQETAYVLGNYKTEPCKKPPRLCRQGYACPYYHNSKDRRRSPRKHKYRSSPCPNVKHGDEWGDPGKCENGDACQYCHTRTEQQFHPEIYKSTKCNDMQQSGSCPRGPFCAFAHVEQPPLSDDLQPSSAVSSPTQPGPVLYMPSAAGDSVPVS
Strand,bound/input enrichment
GUCAGCAUUUUAUGUAUUCCAUUUGCAAAAAACAUUUAUGGACUCAUAGCUCCGAACUUUGGAGUUGGUUUUGCAAUUGGAAUGGUGGAUUCGUCAAUGAUGCCUAUCAUGGGCUACCUC,0.242 ratio
GAUGCAAGAAAGAAACUGAUCCUGAGAAUGAAAAGCUUCAGAAAAUAGAAUUCCAAGAUCAACAGCCUUAGAAGGGACCAGGAAAAGAAUCUUUUAAAAUAGAUUUCUAAGAGAUGCCUA,0.872 ratio
GCAAGGCCAGAGGAACUGACUCCCCACGUGAUGGUGCUCCUGGCCCAGCACCUGGCCCGGCACCGGUUGCGGGAGCCCCAGCUUCUGGAAGCCAUUGCCCACUUCCUGGUGGUUCAGGAA,0.0634 ratio
UGAGCUGAGCUACUUGCCAGUCAGAAUGCAGACUUGGAAUCCUGGAUCAGAGACUUGUCACAGACAGAUUCACUAAUCCUAAGUGGAGACUGGAGGGAUCUAAAUAACCCCUCUGUCAUC,0.0331 ratio
CUCCAGACACAAGUAGCUGAAAUGUCCCGAGUGAUACGUGAUCUGCAGUCCAGGAGCUGUUUUAGAUUUCAUCAUUCUAGGCCAAGUGAGAACUCCUCAGUUCCUUGGGACAUCUCCACC,0.348 ratio
AUACAUGGCGUAAUUAACUCAGCUGUUCUAGCUGCAGUACUGCUGCAGUGAUCCACCCACAUUUAGGAUGUGCUGACAGAUAAGCUCUUUGCCUACAAUACAUGGAUAAUUAGUGCUAUA,0.725 ratio
GCUGCACUCCGUAACUCAACAUGGCAUGCCUUUCUCUCCGUAAACUAUUUAGUGAGAUUUUUAGGGACUAUUUUUCAGUAUCUCUGUACCUGUUAAAGGGGGUGCUUUUCGAUCUAAAAA,0.593 ratio
CUUAUCUUGGUAGCCAAUGCAAUCGUGGGUGUGUGGCAGGAAAGAAAUGCUGAAAAUGCAAUAGAAGCUCUUAAGGAAUAUGAGCCUGAAAUGGGCAAAGUGUAUCGACAGGACAGAAAG,0.515 ratio
CUAUCAAAGGUUCCGGCUUGAAGGGAACUGUCACUACCCCCUCUAGGAAGUUAUUUUAUGUAGCAUGUUUGCAUAUACGCAUUGUGUGGCAUGUGCAUAGAGGCUUGUUUUACACCUAUC,0.762 ratio
CAGGCCCUCCAGGCCCAGCAGGAGGAGCAGCAACUGCGGUACCUGCAGAGGGAGGGCCAGAGCUCCAGGGCCCUGGAGGAGUUGAAACUAUCUUUGGAGAAGCAGCUUGCUCAAAACAAC,0.0777 ratio
AAUUUUGUGAUUUUAAUUCUGAUAAUGAAAUCUUAGCUAUUCUGUACGCAUUGUUGAAGAAAUAAUGUUUUUCAAAGUAGGCAGUUAGGUGUAGUUGGGUGAACAUUGAGAAAGGUAGCC,1 ratio

# Study 5 — technique: protein-binding microarray; molecule type: double-stranded DNA, one strand shown; sample: in vitro; concentration: 250 nM; setting: 60-bp whole probe; together with: salmon DNA 0.4 mg/ml; reference: random background probes; direction: higher = stronger binding; shared flanks, not repeated: GCCTAGCAC … GTCTTGATTCGCTTGACGCTGCTG
# Target: Interferon regulatory factor 5, full length, phosphomimetic (IRF5, Homo sapiens, UniProt Q13568-2, residues 1-514, K96S/S451D/S453D/S456D/S462D)
Strand,log fluorescence
GACGGAATGGGGACTGGGGACGTGCTA,-0.209 z-score
TTAGGACTAGACTTTCGGTTAGTGCTA,9.3 z-score
TCAGAACTGAGTATCGATTAGTGCTAG,6.75 z-score
GTGGAAATCAGTATGTTCCCGTGCTAG,0.221 z-score
TTAGATTCCAGTTTGGATTAGTGCTAG,0.322 z-score
GACGGTCTCGGTCTAGGGACGTGCTAG,0.219 z-score
AACTTTTTTTTTTCCCTGAAGTGCTAG,0.997 z-score
GACGAACAGAGTCTCGAGACGTGCTAG,-0.469 z-score
TCAACTCCCCAACTCGCACTGTGCTAG,-0.403 z-score
TCAAATATATATTCATAACTGTGCTAG,0.749 z-score
TCATGTTTCCTTGTACGACTGTGCTAG,0.797 z-score
TTAGGTCTCCTACTGGTTTAGTGCTAG,-0.237 z-score
GACGATATAAGACTGGAGACGTGCTAG,0.296 z-score
GAGGGTATCCTTATCCTGACGTGCTAG,-0.264 z-score
TTAGGTATCGGTCCCGGTTAGTGCTAG,5.77 z-score
TTAGATATCAGACTGGAGTAGTGCTAG,0.255 z-score
TCAACTTTGCTCTGTGCGACTGTGCTA,-0.00543 z-score

# Some of these lines once more (study 2):
Strand,E-score
CAATGATG,-0.0779
CCAGTATC,-0.188
AGCAGAGG,0.0809
CTGGGCAA,0.183
CTCGAAAC,0.14
ACCACGGC,-0.0248
CGGGATAC,0.0189
CCCAGAAG,0.0348
ATACAATC,-0.0179
CTTCCATC,-0.0387
ACAGCACT,0.0686
